Measured values from different studies.
Numbered parts are unrelated; each lists some results of a single study. Positions count from the first letter of the parent shown.
Chain of UniProt P57078 (whole entry, looked up): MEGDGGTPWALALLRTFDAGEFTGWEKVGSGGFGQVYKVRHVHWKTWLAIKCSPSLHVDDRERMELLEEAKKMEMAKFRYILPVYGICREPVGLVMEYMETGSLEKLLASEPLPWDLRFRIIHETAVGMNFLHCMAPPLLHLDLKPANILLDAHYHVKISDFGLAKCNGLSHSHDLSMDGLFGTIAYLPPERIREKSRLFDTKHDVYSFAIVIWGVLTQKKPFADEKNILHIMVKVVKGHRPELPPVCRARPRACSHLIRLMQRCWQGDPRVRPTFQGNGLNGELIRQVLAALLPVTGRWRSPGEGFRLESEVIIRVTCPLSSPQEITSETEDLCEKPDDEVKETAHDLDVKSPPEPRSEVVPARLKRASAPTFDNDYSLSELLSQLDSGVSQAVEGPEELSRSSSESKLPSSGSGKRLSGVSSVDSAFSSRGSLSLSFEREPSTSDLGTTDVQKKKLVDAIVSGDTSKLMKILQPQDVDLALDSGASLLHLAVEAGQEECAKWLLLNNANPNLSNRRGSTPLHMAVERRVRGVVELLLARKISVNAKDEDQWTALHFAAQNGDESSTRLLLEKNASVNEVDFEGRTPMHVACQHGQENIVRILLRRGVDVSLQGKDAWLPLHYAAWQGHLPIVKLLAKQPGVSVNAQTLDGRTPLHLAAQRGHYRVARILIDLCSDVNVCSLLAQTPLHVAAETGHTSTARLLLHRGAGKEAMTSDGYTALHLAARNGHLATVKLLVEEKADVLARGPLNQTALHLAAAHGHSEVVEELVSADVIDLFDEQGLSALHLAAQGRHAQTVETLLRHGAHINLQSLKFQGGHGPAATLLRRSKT
Chain of UniProt Q59H18 (whole entry, looked up): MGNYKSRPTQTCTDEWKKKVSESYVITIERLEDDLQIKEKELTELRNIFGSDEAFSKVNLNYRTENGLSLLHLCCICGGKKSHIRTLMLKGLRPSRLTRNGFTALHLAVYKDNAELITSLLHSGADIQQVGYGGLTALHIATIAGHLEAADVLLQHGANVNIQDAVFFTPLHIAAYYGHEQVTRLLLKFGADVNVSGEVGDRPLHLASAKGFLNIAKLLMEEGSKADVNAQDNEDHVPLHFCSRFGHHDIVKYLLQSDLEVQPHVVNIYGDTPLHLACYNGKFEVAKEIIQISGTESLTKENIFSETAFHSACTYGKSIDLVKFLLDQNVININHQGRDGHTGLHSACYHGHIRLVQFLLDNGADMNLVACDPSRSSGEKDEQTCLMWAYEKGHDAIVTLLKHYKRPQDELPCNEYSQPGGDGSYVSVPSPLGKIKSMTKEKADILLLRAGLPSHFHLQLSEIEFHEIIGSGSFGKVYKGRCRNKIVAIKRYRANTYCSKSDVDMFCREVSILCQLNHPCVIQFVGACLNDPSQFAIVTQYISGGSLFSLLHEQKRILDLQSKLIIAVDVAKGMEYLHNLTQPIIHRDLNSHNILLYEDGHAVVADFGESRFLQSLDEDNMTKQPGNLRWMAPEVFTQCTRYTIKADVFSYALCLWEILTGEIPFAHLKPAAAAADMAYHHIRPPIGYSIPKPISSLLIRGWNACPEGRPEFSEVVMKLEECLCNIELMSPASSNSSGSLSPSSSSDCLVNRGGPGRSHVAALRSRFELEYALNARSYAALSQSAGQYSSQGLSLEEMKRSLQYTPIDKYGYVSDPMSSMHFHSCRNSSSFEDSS
Chain of UniProt O14730 (whole entry, looked up): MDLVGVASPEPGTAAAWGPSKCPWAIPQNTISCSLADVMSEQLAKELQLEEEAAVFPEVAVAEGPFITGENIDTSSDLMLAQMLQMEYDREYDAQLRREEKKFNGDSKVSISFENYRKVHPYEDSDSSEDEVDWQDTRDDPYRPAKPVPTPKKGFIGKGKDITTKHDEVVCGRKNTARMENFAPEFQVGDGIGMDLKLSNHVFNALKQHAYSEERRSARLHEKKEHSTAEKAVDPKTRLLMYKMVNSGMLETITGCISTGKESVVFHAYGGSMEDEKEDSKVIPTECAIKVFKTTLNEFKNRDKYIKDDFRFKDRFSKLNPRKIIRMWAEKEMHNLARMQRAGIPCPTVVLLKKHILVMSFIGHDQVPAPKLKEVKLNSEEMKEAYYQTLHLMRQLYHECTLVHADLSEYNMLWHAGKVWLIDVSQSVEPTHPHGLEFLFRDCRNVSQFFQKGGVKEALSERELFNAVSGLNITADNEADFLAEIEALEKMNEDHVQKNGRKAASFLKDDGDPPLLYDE
Chain of UniProt Q9Y616 (whole entry, looked up): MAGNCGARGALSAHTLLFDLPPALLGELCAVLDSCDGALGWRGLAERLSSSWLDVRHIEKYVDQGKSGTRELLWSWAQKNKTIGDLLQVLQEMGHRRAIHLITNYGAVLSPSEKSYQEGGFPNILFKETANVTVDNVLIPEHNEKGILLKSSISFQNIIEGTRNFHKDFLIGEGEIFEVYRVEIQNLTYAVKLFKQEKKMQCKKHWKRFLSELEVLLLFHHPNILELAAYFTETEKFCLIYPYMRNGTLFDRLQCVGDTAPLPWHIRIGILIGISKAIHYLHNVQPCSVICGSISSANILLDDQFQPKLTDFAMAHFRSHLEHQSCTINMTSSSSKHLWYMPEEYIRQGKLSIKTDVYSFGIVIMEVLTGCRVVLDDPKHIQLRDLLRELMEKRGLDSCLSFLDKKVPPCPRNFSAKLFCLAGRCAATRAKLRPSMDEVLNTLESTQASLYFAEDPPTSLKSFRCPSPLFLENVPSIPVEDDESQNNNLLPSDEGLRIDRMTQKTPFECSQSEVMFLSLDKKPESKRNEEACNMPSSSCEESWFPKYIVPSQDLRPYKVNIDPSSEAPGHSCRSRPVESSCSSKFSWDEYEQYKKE
Chain of UniProt Q8WXR4 (whole entry, looked up): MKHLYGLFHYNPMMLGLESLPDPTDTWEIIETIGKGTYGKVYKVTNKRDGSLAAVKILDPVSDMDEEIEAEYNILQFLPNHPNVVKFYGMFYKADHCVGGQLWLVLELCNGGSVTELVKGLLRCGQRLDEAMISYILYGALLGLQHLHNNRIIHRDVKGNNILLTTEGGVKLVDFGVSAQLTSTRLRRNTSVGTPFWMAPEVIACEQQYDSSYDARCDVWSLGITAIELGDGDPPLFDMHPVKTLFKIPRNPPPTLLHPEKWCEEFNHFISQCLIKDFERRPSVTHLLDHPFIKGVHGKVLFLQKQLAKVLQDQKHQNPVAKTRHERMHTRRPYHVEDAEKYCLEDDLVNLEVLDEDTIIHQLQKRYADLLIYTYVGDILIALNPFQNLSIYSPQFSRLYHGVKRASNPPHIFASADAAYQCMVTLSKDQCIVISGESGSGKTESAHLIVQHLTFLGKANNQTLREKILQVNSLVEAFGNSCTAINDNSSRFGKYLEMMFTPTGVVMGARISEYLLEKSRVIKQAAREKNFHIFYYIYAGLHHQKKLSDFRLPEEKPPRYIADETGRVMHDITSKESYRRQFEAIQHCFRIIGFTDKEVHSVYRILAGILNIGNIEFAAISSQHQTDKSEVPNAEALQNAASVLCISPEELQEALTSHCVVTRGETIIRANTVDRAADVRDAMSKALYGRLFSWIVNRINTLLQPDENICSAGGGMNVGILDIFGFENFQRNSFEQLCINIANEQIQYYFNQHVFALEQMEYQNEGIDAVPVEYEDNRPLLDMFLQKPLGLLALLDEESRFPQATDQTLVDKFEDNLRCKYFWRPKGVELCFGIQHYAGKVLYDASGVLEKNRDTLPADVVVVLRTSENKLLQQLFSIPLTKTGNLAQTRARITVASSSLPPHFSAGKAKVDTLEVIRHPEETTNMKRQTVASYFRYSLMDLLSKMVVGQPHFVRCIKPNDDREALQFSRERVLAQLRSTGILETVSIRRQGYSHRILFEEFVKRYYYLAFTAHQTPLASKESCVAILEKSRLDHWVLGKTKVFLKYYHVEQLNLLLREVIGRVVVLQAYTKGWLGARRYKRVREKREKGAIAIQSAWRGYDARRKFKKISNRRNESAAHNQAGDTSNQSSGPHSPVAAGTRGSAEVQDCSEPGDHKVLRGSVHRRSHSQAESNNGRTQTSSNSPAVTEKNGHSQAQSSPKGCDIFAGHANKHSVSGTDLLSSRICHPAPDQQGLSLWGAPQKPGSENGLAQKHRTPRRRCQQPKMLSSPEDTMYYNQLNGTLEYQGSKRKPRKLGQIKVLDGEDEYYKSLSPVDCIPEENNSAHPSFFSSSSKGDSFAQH

Sample 1 — read-out: enzyme activity; mode: inhibitor; concentration: 0.5 µM; relative to: control
Target: Serine/threonine-protein kinase Sgk2 (SGK2, Homo sapiens, UniProt Q9HBY8)
Target sequence (Q9HBY8 1-367): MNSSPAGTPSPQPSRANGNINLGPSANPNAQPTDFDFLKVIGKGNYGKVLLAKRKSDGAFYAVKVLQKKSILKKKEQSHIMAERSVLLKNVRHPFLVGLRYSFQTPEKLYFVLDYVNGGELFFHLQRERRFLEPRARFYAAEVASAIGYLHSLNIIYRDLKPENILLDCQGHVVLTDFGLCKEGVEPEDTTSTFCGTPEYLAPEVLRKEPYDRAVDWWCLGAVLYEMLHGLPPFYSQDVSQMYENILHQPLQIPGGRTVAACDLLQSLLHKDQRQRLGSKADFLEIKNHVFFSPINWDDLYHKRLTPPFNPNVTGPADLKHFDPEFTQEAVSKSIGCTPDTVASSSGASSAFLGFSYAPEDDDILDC
SMILES | remaining activity
O=C1NC(=O)C(c2cn(CCCn3ccnc3)c3ccccc23)=C1Nc1ccccc1 | 82.4%
O=C(Nc1cccc(Nc2cc(Nc3cccc(C(F)(F)F)c3)ncn2)c1)C1CC1 | 99%
O=C(CCCc1ccc(-c2ccccc2F)cc1)Nc1ccc(O)cc1 | 101%
Cc1cccc(-c2[nH]c(C(C)(C)C)nc2-c2ccc3c(c2)OCO3)n1 | 100%
Nc1[nH]nc2nc3ccccc3nc12 | 90.3%
COc1ccc(C(=O)Nc2sc3c(c2C(N)=O)CCCC3)cc1OC | 100%
Oc1ccc(-c2nc(-c3ccncc3)c(-c3ccc(F)cc3)[nH]2)cc1 | 99.6%
COc1ccc(CNC(=O)Nc2ncc([N+](=O)[O-])s2)cc1 | 99.5%
Cc1ccc(NC(=O)c2ccc(CN3CCN(C)CC3)cc2)cc1Nc1nc(-c2cccnc2)cs1 | 106%
CNC(=O)c1cc(Oc2ccc(NC(=O)Nc3ccc(Cl)c(C(F)(F)F)c3)cc2)ccn1 | 103%
OCC(O)CCON=C1C(c2c(O)[nH]c3ccccc23)=Nc2ccccc21 (stereo not shown) | 75.8%
C#Cc1cccc(Nc2ncnc3cc(OCCOC)c(OCCOC)cc23)c1 | 107%
CO[C@H]1C[C@@H]2CC[C@@H](C)[C@@](O)(O2)C(=O)C(=O)N2CCCC[C@H]2C(=O)O[C@H]([C@H](C)C[C@@H]2CC[C@@H](O)[C@H](OC)C2)CC(=O)[C@H](C)/C=C(\C)[C@@H](O)[C@@H](OC)C(=O)[C@H](C)C[C@H](C)/C=C/C=C/C=C/1C | 101%
O=c1c2ccccc2[nH]c(=S)n1CCN1CCC(=C(c2ccc(F)cc2)c2ccc(F)cc2)CC1 | 99.1%
N#CC(C#N)=C(N)/C(C#N)=C/c1ccc(O)cc1 | 110%

Sample 2 — technique: competition with immobilised ligand; concentration: 1 µM
Compound: CN(C)CC#Cc1ccc(OCCCc2sc(N3CCc4cccc(C(=O)Nc5nc6ccccc6s5)c4C3)nc2C(=O)O)c(F)c1
target | read-out | remaining binding
RIOK3 (Homo sapiens, UniProt O14730) | cell-free assay | 86%
TNNI3K (Homo sapiens, UniProt Q59H18) | cell-free assay | 100%
IRAK3 (Homo sapiens, UniProt Q9Y616) | cell-free assay | 77%
RIPK4 (Homo sapiens, UniProt P57078) | cell-free assay | 100%
Tyrosine-protein kinase ABL1, phosphorylated (ABL1, Homo sapiens, UniProt P00519, Y253F) | cell-free assay | 93%
Myosin-IIIb (MYO3B, Homo sapiens, UniProt Q8WXR4) | binding | 96%

Sample 3 — technique: DHFR PCA, deep sequencing; medium: yeast; with: (+)-ABA 0.39 µM; relative to: wild-type fitted maximum; reading: higher = stronger binding
Target: ABI1, truncated, D143A, DHFR fusion (Arabidopsis thaliana)
Notes: methotrexate growth selection, single substitutions
Starting sequence: PYL1, truncated, DHFR fusion (Arabidopsis thaliana); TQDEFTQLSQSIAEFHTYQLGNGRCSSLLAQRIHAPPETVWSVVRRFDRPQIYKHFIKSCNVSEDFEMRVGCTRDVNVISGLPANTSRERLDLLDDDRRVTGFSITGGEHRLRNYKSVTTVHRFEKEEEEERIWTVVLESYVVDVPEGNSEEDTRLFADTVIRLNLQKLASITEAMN
Substitution | relative binding score [%]
T173D | -38.6
D96M | -18
T39P | -2.67
E128F | 29.3
G71F | -3.59
R123E | 60.5
C60E | -5.23
H110P | 67.2

Sample 4 — technique: aptamer microarray, sandwich; form: DNA with 2'F-ANA; medium: in vitro; concentration: 200 nM; with: Cy3 exosite-II aptamer, 400 nM; reading: higher = stronger binding; strand: GGTTGGTGTGGTTGG
Target: Prothrombin, mature alpha-thrombin (F2, Homo sapiens, UniProt P00734)
Notes: whole 15-mer aptamer, many near background
Modification | mean fluorescence intensity [a.u.]
2'F-ANA at 1 3 9 10 12 14 | 61.7
2'F-ANA at 1 3 4 5 6 9 11 12 15 | 89.5
2'F-ANA at 1 2 3 4 5 7 9 10 12 | 53.1
2'F-ANA at 3 5 6 8 9 11 13 14 | 57.2
2'F-ANA at 1 2 4 5 7 8 13 15 | 52.6
2'F-ANA at 3 5 7 8 12 13 14 15 | 71.9
2'F-ANA at 1 2 3 5 10 | 58.5
2'F-ANA at 5 6 9 12 13 | 114

Repeated from above (sample 4):
Modification | mean fluorescence intensity [a.u.]
2'F-ANA at 5 6 9 12 13 | 114
2'F-ANA at 1 2 3 4 5 7 9 10 12 | 53.1
2'F-ANA at 3 5 7 8 12 13 14 15 | 71.9
2'F-ANA at 3 5 6 8 9 11 13 14 | 57.2
